# Measured values pooled from the literature.
# Parts stem from different laboratories: compare values within a part only. Changes are numbered by the printed parent chain.
# UniProt Q08881, sequence (whole entry, looked up): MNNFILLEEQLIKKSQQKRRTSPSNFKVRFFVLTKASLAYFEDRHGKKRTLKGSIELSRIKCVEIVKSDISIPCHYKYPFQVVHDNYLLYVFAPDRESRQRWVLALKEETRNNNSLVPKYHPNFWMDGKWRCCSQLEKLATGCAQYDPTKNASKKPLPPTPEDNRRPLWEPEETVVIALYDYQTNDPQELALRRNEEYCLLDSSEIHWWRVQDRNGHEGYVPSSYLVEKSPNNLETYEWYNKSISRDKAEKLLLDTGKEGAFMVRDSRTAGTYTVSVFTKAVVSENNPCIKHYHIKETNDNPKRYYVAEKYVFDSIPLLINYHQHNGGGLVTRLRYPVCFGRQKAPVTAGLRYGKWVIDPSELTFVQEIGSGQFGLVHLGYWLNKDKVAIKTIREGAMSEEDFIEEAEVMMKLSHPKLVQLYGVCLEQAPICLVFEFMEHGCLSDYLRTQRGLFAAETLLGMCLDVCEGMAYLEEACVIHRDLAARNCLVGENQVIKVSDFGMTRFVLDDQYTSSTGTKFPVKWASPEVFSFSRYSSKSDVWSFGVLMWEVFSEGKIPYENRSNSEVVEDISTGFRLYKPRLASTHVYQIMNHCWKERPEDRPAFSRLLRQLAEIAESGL
# UniProt P51451, sequence (whole entry, looked up): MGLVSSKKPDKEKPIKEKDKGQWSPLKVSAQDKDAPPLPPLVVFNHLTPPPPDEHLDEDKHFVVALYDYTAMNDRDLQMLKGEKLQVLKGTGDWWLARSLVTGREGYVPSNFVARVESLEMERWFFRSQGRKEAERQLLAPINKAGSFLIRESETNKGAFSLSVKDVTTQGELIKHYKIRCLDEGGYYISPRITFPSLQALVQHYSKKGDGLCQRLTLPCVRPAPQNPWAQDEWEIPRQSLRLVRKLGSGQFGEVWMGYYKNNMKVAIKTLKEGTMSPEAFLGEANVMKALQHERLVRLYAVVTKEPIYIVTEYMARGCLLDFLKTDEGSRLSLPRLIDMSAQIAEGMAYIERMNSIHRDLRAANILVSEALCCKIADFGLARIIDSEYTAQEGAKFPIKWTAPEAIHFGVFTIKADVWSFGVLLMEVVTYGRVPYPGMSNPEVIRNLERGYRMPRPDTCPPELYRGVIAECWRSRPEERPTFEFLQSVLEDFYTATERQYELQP
# UniProt Q9H0K1, sequence (whole entry, looked up): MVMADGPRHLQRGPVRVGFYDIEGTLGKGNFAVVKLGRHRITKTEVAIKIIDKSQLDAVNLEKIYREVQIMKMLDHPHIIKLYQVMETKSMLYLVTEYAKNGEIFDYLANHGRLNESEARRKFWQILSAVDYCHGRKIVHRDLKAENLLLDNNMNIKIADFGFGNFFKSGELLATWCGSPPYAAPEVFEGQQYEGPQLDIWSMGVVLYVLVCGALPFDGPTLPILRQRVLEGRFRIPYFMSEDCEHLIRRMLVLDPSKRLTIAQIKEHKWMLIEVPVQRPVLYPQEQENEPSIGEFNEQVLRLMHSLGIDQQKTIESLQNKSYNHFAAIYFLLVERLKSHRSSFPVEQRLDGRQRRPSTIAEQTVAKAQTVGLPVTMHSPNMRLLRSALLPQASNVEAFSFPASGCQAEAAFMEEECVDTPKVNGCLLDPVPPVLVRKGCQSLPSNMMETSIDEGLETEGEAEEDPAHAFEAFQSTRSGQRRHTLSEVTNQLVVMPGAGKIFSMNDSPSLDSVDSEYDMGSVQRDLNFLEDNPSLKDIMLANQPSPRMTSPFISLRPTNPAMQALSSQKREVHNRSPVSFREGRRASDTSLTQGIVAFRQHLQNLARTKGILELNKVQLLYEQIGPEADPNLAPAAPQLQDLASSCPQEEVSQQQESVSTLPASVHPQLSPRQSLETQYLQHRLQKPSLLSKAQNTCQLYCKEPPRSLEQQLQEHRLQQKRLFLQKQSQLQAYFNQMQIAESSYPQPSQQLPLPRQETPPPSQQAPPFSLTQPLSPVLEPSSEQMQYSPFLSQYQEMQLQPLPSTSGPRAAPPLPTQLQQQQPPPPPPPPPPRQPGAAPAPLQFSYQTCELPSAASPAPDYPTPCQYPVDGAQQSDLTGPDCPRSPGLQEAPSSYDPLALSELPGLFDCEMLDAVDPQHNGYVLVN
# UniProt P07333, sequence (whole entry, looked up): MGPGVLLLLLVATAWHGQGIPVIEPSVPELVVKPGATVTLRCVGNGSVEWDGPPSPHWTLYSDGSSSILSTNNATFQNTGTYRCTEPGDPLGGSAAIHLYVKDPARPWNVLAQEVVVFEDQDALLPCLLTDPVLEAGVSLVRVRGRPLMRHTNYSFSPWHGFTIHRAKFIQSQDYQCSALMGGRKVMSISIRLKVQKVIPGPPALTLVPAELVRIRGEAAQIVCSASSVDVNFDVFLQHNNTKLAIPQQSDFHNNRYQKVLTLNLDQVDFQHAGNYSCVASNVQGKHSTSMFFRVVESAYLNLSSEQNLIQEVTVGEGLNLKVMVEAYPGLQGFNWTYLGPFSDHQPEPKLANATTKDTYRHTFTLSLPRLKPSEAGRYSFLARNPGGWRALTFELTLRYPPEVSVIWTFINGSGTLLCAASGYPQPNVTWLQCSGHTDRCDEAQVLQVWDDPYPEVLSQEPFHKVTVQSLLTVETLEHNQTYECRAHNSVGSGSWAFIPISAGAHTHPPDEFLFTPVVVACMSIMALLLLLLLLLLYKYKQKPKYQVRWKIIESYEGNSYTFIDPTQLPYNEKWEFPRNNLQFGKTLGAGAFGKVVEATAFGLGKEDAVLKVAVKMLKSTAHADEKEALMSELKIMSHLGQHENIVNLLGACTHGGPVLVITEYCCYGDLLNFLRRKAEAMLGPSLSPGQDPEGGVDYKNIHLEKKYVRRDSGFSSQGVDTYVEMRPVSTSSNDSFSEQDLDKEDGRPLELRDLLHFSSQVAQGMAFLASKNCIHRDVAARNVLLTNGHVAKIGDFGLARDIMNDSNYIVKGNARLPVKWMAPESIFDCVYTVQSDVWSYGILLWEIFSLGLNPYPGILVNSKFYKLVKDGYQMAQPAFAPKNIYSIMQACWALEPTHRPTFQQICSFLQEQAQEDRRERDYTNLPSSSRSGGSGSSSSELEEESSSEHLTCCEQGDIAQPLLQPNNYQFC
# UniProt P49761, sequence (whole entry, looked up): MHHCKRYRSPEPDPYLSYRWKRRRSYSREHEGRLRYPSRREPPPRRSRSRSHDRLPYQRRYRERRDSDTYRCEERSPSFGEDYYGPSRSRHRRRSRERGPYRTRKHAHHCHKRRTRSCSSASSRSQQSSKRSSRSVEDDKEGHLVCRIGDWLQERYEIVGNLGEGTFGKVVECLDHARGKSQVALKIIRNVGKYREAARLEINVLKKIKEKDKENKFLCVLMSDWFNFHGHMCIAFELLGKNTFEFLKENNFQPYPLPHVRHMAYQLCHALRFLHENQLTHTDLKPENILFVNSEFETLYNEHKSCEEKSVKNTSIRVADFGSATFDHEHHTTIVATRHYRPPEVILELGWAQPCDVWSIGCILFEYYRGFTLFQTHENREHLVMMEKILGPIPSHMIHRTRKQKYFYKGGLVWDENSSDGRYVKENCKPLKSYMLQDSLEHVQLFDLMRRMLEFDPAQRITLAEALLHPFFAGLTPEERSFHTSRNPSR
# UniProt P53355, sequence (whole entry, looked up): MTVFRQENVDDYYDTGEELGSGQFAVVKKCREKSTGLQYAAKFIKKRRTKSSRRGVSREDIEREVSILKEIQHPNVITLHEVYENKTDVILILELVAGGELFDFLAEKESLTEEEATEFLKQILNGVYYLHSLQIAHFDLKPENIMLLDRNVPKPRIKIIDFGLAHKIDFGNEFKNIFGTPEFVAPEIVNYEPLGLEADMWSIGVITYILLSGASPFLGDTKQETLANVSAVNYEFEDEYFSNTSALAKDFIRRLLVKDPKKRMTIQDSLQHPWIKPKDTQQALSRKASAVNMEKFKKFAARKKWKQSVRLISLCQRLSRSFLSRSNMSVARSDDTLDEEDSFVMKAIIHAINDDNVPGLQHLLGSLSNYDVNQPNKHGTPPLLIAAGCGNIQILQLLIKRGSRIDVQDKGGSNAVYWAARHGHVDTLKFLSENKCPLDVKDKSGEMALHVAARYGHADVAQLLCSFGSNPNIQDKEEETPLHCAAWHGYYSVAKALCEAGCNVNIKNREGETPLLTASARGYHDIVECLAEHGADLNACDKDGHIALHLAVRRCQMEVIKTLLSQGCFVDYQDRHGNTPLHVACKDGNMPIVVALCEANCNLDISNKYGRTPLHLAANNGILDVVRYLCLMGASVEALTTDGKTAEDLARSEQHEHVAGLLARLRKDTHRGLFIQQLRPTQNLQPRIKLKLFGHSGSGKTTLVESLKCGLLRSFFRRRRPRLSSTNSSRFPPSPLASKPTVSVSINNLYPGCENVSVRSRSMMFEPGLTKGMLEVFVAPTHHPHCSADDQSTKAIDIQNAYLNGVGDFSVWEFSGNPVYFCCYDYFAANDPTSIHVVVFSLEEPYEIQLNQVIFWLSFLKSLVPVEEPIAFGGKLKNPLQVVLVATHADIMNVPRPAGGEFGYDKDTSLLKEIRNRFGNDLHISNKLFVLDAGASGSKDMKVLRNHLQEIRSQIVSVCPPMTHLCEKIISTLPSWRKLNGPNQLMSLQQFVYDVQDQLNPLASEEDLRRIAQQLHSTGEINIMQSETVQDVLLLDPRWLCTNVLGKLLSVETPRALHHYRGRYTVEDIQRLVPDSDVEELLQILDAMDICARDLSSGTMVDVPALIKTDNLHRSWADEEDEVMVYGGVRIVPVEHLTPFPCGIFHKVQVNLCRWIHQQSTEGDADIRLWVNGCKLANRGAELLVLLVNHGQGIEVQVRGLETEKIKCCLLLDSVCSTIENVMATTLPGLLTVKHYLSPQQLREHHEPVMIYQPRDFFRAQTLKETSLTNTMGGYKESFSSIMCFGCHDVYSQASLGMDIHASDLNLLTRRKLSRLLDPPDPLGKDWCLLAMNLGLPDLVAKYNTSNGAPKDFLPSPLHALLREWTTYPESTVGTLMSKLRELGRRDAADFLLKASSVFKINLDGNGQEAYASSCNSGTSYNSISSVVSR

# Set 1
# Target: ABI1, truncated, D143A, DHFR fusion (Arabidopsis thaliana)
# Method: DHFR PCA, deep sequencing
# Matrix: yeast
# Notes: methotrexate growth selection, single substitutions
# Together with: (+)-ABA 0.39 µM
# Relative to: wild-type fitted maximum
# Reading: higher = stronger binding
# Starting sequence: PYL1, truncated, DHFR fusion (Arabidopsis thaliana); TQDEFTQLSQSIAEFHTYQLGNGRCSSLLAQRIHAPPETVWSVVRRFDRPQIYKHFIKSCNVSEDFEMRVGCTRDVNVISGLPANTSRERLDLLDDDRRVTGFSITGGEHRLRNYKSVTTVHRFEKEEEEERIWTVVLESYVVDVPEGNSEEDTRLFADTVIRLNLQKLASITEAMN
Variant,relative binding score
F56Q,-8.82%
L156H,5.13%
H34V,9.86%
V70D,6.98%
P83Y,-10.2%
C25D,-12.5%
I162S,14%
N165P,13.4%

# Set 2
# SMILES: Cc1cc(C)c(-n2ccn3nc(-c4cccnc4)cc23)cc1NC(=O)c1cc(C#N)cc(S(F)(F)(F)(F)F)c1
# Observed: cell-free assay
# Method: competition with immobilised ligand
# Concentration: 0.1 µM
target,remaining binding [%]
"Dual specificity protein kinase CLK3 (CLK3, Homo sapiens, UniProt P49761)",87.7
"Serine/threonine-protein kinase WNK4 (WNK4, Homo sapiens, UniProt Q96J92)",100
"Tyrosine-protein kinase Blk (BLK, Homo sapiens, UniProt P51451)",100
"Hepatocyte growth factor receptor (MET, Homo sapiens, UniProt P08581, Y1235D)",93.4
"Epidermal growth factor receptor (EGFR, Homo sapiens, UniProt P00533, L858R)",83.9
"Death-associated protein kinase 1 (DAPK1, Homo sapiens, UniProt P53355)",94.1
"Serine/threonine-protein kinase SIK2 (SIK2, Homo sapiens, UniProt Q9H0K1)",94.2
"Tyrosine-protein kinase JAK3, JH1 (JAK3, Homo sapiens, UniProt P52333)",95.3
"Tyrosine-protein kinase ITK/TSK (ITK, Homo sapiens, UniProt Q08881)",84.9
"Macrophage colony-stimulating factor 1 receptor, autoinhibited (CSF1R, Homo sapiens, UniProt P07333)",92.9
"Insulin receptor-related protein (INSRR, Homo sapiens, UniProt P14616)",91.8
"Eukaryotic translation initiation factor 2-alpha kinase 1 (EIF2AK1, Homo sapiens, UniProt Q9BQI3)",100
"Tyrosine-protein kinase JAK2, JH1 (JAK2, Homo sapiens, UniProt O60674)",81.8

# Set 3
# Target: PABPC1L2, full length, GST fusion (mouse, UniProt A0ABA7IW68)
# Method: RNAcompete
# Molecule type: RNA
# Matrix: in vitro
# Concentration: 20 nM
# Notes: 7-mer, probes averaged, single round
# Relative to: mean of 7-mers
# Reading: higher = stronger binding
# Construct (chain): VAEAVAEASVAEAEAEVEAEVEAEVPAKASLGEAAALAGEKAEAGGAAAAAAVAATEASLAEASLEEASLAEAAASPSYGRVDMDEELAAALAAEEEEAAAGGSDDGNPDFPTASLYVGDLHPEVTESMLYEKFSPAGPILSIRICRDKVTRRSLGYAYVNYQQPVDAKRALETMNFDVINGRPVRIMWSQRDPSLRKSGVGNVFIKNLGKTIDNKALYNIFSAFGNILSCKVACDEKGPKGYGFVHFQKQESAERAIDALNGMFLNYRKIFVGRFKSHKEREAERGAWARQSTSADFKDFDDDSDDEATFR
Sequence,7-mer Z-score
GCUUGCC,-0.249
ACCGCUC,-0.255
AUGAAUU,-0.0446
GGUCGAC,0.00798
AUCCAAG,-0.0446
CAUGGUA,0.0551
GUAACCA,-0.0609
GUAUAGA,-0.103

# Further values, each from its own experiment
Structure (SMILES),cell line,setting,endpoint,value
CO/N=C(\C(=O)N[C@@H]1C(=O)N2C(C(=O)OC(C)OC(C)=O)=C(COC(N)=O)CS[C@H]12)c1ccco1 (stereo partly drawn),Huh-7,"10 µM, 24 h",viability,96.9%

# Some of these lines once more (set 1):
Variant,relative binding score
L156H,5.13%
H34V,9.86%
V70D,6.98%
P83Y,-10.2%
